{"data": "Literature values, collected from citations in different studies", "note": "Numbered parts are unrelated; values within a part may stem from several laboratories."}
{"data": "Sample 1", "organism": "Plasmodium falciparum", "tested at": "concentration not given"}
{"Compound": "O=c1c2ccccc2[se]n1-c1ccccc1", "activity": "active"}
{"Compound": "CC(NC(C)(C)C)C(=O)c1cccc(Cl)c1 (stereo not drawn)", "activity": "active"}
{"Compound": "CNC1CC(c2ccc(Cl)c(Cl)c2)c2ccccc21 (stereo not drawn)", "activity": "active"}
{"Compound": "O=C(O)CCCc1ccc(N(CCCl)CCCl)cc1", "activity": "active"}
{"Compound": "Br.COc1ccc2c(c1)[C@]13CCCC[C@@H]1[C@H](C2)N(C)CC3", "activity": "active"}
{"Compound": "CN1CC[C@@]23CCCC[C@@H]2[C@@H]1Cc1ccc(O)cc13.O=C(O)C(O)C(O)C(=O)O", "activity": "active"}
{"Compound": "Oc1cc(Cl)ccc1Oc1ccc(Cl)cc1Cl", "activity": "active"}
{"Compound": "COC(=O)N1CCN(C(=O)Cc2ccc(Cl)c(Cl)c2)C(CN2CCCC2)C1.O=C(O)/C=C/C(=O)O (stereo not drawn)", "activity": "active"}
{"Compound": "CC(C)N(CCC(C(N)=O)(c1ccccc1)c1ccccn1)C(C)C (stereo not drawn)", "activity": "active"}
{"data": "Sample 2", "SMILES": "OCCN1CCN(CCC=C2c3ccccc3Sc3ccc(C(F)(F)F)cc32)CC1", "cell line": "MCF7", "tested at": "concentration not given", "reference": "DMSO"}
{"technique": "microarray, Connectivity Map", "measured": "MAFF mRNA", "time": "6 h", "fold change": 1.52}
{"technique": "microarray", "measured": "SQSTM1 mRNA", "fold change": 1.19}
{"technique": "microarray, Connectivity Map", "measured": "INSIG1 mRNA", "time": "6 h", "fold change": 2.07}
{"data": "Single results of other studies"}
{"Compound": "COc1cc2c(Oc3ccc4[nH]c(C)cc4c3F)ccnc2cc1OCC1(N)CC1", "target or system": "CYP3A4", "read-out": "enzyme activity", "action": "inhibitor", "added": "midazolam", "endpoint": "IC50", "value": "9560 nM"}
{"Compound": "Cc1c(S(=O)(=O)N2CCc3[nH]ncc3C2)cc(C(=O)NCc2c(F)ccc3occc23)n1C", "target or system": "coronaviruses", "read-out": "antiviral activity", "endpoint": "EC50", "value": "~10 nM"}
{"Compound": "CNC(=N)NCCC[C@H](NC(=O)[C@H](CC(C)C)NC(=O)NNC(=O)[C@H](Cc1ccccc1)NC(=O)[C@H](CO)NC(=O)[C@H](CC(N)=O)NC(=O)[C@@H](Cc1ccncc1)NC(=O)[C@H](N)Cc1ccc(O)cc1)C(=O)N[C@@H](Cc1ccccc1)C(N)=O", "target or system": "KISS1R (human)", "read-out": "cellular activity", "endpoint": "IC50", "value": "8.94 nM"}
{"Compound": "NCC1(CC(=O)O)CCCCC1", "target or system": "dopamine transporter", "endpoint": "IC50", "value": "> 10000 nM"}
{"Compound": "NC(=O)c1ccc2nc(-c3ccc(C4(N)CCC4)cc3)c(-c3ccccc3)n2n1", "target or system": "FLT3 D835Y", "technique": "DiscoverX KINOMEscan", "endpoint": "Kd", "value": "210 nM"}
{"Compound": "O=C(C[18F])NCCCCCC(=O)Nc1ccccc1", "endpoint": "logP", "value": 1.39}
{"note": "A few entries again (sample 2):"}
{"technique": "microarray, Connectivity Map", "measured": "MAFF mRNA", "time": "6 h", "fold change": 1.52}
